Published values collected from several papers.
Each numbered part is a random draw from the data of one study; scales do not carry over between parts. Substitutions count along the parent as printed.

Sample 1
Target: TAR DNA-binding protein 43, full length, His tag (TARDBP, Homo sapiens, UniProt Q13148, residues 1-414)
Technique: RNA Bind-n-Seq
Molecule type: RNA
Medium: in vitro
Concentration: 20 nM
Notes: 6-mer, flanks averaged, single round
With: 150 mM LiCl
Baseline: input library
Reading: higher = stronger binding
For `GUCUCC`, “6-mer enrichment (R)” read 0.938.
`GAGGCC` — result for “6-mer enrichment (R)”: 1.01.
Under “6-mer enrichment (R)”, `AACCCC` is recorded as 1.03.
`GUCCAU` — result for “6-mer enrichment (R)”: 0.913.
For `CACAAA`, “6-mer enrichment (R)” read 0.859.
`GCUGCU`: “6-mer enrichment (R)” 0.968.
For `UAAGAA`, “6-mer enrichment (R)” read 1.04.
Under “6-mer enrichment (R)”, `ACUAGC` is recorded as 0.851.
`GUCGUC`: “6-mer enrichment (R)” 1.03.
`UGCGAA`: “6-mer enrichment (R)” 0.912.
Under “6-mer enrichment (R)”, `GAGCUA` is recorded as 0.886.

Sample 2
Target: MAFF, bZIP domain (human)
Technique: DHFR protein complementation
Medium: yeast
Notes: single substitutions, most at no-binding floor
Baseline: wild-type JUN-FOS pair
Reading: higher = stronger binding
Starting sequence: JUN, bZIP domain (human); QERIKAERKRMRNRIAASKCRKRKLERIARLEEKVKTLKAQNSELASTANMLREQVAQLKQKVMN; partner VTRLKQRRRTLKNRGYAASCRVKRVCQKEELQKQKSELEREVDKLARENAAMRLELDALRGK
`A46P` gave a binding fitness of -1.57 natural log.
`E54Q` has a binding fitness of -1.59 natural log.
With `A49P` the binding fitness was -1.54 natural log.
With `E54D` the binding fitness was -1.47 natural log.
`K36R` has a binding fitness of -1.33 natural log.
`L31S` has a binding fitness of -1.26 natural log.
With `K36W` the binding fitness was -1.49 natural log.
`E54L` has a binding fitness of -1.57 natural log.
`N42L` gave a binding fitness of -1.17 natural log.
`E44C` has a binding fitness of -1.39 natural log.
With `A49C` the binding fitness was -1.19 natural log.
The binding fitness of `T48L` is reported as -1.41 natural log.
`L45I` gave a binding fitness of -1.51 natural log.
For `Q55A`, the binding fitness was -1.48 natural log.
For `L38V`, the binding fitness was -1.59 natural log.
The binding fitness of `N42F` is reported as -1.32 natural log.
The binding fitness of `R30S` is reported as -1.47 natural log.

Sample 3
Target: CCNF, cyclin fold, Cln2 fusion (human)
Technique: yeast growth competition, sequencing
Medium: yeast
Notes: strong parent motif
Baseline: not given
Reading: higher = stronger binding
Starting sequence: BRCA2 docking peptide (human); PSIKRNLLNEFDR; partner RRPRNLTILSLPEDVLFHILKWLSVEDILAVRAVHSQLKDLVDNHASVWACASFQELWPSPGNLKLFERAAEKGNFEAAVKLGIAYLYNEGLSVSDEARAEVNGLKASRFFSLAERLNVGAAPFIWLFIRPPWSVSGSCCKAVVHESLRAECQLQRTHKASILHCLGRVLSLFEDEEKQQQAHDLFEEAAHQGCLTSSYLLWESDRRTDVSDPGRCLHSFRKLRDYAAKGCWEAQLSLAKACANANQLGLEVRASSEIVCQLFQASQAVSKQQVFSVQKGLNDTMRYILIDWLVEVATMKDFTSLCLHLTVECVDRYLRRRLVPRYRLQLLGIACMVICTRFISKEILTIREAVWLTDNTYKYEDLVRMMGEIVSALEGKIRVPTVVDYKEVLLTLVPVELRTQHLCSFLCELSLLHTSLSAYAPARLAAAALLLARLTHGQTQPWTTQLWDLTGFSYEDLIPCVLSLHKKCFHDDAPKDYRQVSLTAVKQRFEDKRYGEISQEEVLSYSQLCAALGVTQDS
`PSIKRDLLNEFDR [N6D]` — result for “normalised enrichment score”: 0.763.
`PSIKRNLLNEDDR [F11D]` — result for “normalised enrichment score”: 0.228.
Under “normalised enrichment score”, `TSIKRNLLNEFDR [P1T]` is recorded as 2.81.
`PSIKENLLNEFDR [R5E]`: “normalised enrichment score” -0.597.
For `PCIKRNLLNEFDR [S2C]`, “normalised enrichment score” read 2.47.
Under “normalised enrichment score”, `PSIKRNLLEEFDR [N9E]` is recorded as 2.31.
For `PSIKRNMLNEFDR [L7M]`, “normalised enrichment score” read 1.61.
For `PLIKRNLLNEFDR [S2L]`, “normalised enrichment score” read 3.41.
`PSIKRNLLYEFDR [N9Y]` — result for “normalised enrichment score”: 4.3.
`PSIKRNLLNMFDR [E10M]` — result for “normalised enrichment score”: 2.28.
`PSIKRNLLNEADR [F11A]`: “normalised enrichment score” 2.08.
For `PSIKRNLHNEFDR [L8H]`, “normalised enrichment score” read 0.589.
Under “normalised enrichment score”, `PSIKDNLLNEFDR [R5D]` is recorded as 0.525.
`PSIKRNCLNEFDR [L7C]` — result for “normalised enrichment score”: 0.0904.
For `PSIKRNLLNEFWR [D12W]`, “normalised enrichment score” read 3.02.
`PDIKRNLLNEFDR [S2D]` — result for “normalised enrichment score”: 2.53.
`PSIKLNLLNEFDR [R5L]` — result for “normalised enrichment score”: -0.747.
`PSCKRNLLNEFDR [I3C]`: “normalised enrichment score” 4.39.
`PSIKRNYLNEFDR [L7Y]` — result for “normalised enrichment score”: 1.56.
Under “normalised enrichment score”, `PSIKRNLLNGFDR [E10G]` is recorded as 1.76.
`PSIKRALLNEFDR [N6A]`: “normalised enrichment score” 2.99.
Under “normalised enrichment score”, `PSIKRNLLNEFKR [D12K]` is recorded as 1.77.
Under “normalised enrichment score”, `PSIKRNWLNEFDR [L7W]` is recorded as 1.51.
`PSIKCNLLNEFDR [R5C]`: “normalised enrichment score” -0.332.

Sample 4
Target: RNA binding protein fox-1 homolog 2, RRM domain, GST-SBP tag (RBFOX2, Homo sapiens, UniProt O43251-10, residues 100-194)
Technique: RNA Bind-n-Seq
Molecule type: RNA
Medium: in vitro
Concentration: 365 nM
Notes: natural RNA segment, single round, ends assumed
Baseline: no-protein control
Reading: higher = stronger binding
Construct (chain): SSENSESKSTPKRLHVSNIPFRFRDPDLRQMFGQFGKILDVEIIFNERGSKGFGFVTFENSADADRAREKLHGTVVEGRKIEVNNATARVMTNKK
`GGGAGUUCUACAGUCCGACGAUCGUAGAGAUGGUUUCACCAUGCUGGCCAGGCUGGUCUUGAACUCCUGACCUCAGGUGAUCCUCCCGCCUCAGCCUUCCAAAGUGCUGGGAUUACAAGCAUGAGCCACCGCAUGGAAUUCUCGGGUGCCAA`: “RBNS enrichment (R)” 7.77.
For `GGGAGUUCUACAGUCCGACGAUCUUCACCUGCCCUUGGUGUGGACACACCCUCUCAUGCUACCAGCACCAUAAUCCAGUGGGGGUGACUGGGUGCACACCUGCCCAGGUGAACACAGCGGCUGCCAGUCUCCUUGGAAUUCUCGGGUGCCAA`, “RBNS enrichment (R)” read 0.415.
`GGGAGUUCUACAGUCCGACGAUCCAUAGCAAGUUUCAGGGCAGUGUGGGUAUGAGGUUGUGUCUCAAAAACAUUUGAAAGCAUGUUGUGCAUGUGUGAGAGAGUGGCGUGGCUGGUCUCAGGCUGACACUCGAUGGAAUUCUCGGGUGCCAA`: “RBNS enrichment (R)” 40.
`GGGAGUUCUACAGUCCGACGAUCUGGGAAUUGUGCCUAUUUAGAUUGCCCCUCCAGUUAAAUACACAUGUAAUCCAAGCCAGAGAUAAGAUGGAAGAACAUUUUUUUUUCAAGUUCACUUGGCCAGUAACUUAUGGAAUUCUCGGGUGCCAA` — result for “RBNS enrichment (R)”: 1.
Under “RBNS enrichment (R)”, `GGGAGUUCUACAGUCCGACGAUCGGCUUUUUUUUGUAGCCAGUCCUGUCCCUGGCCAUCCAUGUGAUGGUUUUGGAUGGAGUUAAACUUGAUGCCAGUGGGCAGUGCAUGUGGAAAGUAUCAGAGUAAGGCUCUGGAAUUCUCGGGUGCCAA` is recorded as 8.8.
`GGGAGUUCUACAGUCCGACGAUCGCCUGAAAAUGUUCAAGACUUAUGUUCAGGGUGGGAUGAUGGAACCGAGGGCUUCAUCAAAGUGAGAGGAAAGGAAAAGCAUCUGGCAUGUGUUUCUUGGAUAGGGGCCAUGGAAUUCUCGGGUGCCAA` — result for “RBNS enrichment (R)”: 2.54.
`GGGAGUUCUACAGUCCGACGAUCCCAGGCAGCUGGUCACUUACCAGGUGUGGACUUACGUUGCUGGGCUUGCAAAUGAAUUGCUAGUCCCUCAUUGUGCGGGUCUAUGUGGAGCUUUAAUCAGUAAAUGUCUCUGGAAUUCUCGGGUGCCAA` — result for “RBNS enrichment (R)”: 0.292.
For `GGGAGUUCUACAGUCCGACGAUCGCAGGUGACCAAGCACGGUCCCUCGUGGGACUGGAUUCGCCAUUUUCUUAUAUCUGCUGCUAAAUCGCCAAGCCCGGAAGAUUAGGGUUGUUUCUGGGAUUCCUGUAGACUGGAAUUCUCGGGUGCCAA`, “RBNS enrichment (R)” read 0.568.
`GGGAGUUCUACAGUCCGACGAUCUCCUGUAAGGUUUGAAUGAGACAGAUGUACUCUGAAGGCUGGUGGUAAAUGUGUUUGAUGACCAGACUCUUCAUACAGUCGGCUUGGGCCACUUUAAAGGACAAAAGCCAUGGAAUUCUCGGGUGCCAA`: “RBNS enrichment (R)” 1.69.
For `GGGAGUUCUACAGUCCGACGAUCUUCCUCUCUGAGUCCCAGCUAUGGGGAACAUCUGGAGUCAGCAGAACCAUUGGGACCUGAGGCAGGAGUGUCACCUGCGGGAGAAGUCUGCCCGCUGCCCUCUGUCAUCCUGGAAUUCUCGGGUGCCAA`, “RBNS enrichment (R)” read 0.315.
`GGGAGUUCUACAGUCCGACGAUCCAUCUGAGCCAGGCCUAAUCCUCUAAUAGUGAUGGUUGGUUUGUCCUCCCAUAACUGCAGGUGGAUUCCACCUGGGGAAUGAGGCUGCGUGUCGGGCGUCUGCUGGCCCUUGGAAUUCUCGGGUGCCAA`: “RBNS enrichment (R)” 0.259.
`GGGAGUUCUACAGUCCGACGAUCCACGGUCCUCGCUAGGGGCCCCAUGUCACCUGCAUCAGGACUAUUGGCACUCACUAGCUGCCCCUACAGCUUGCCUCUGGGCCUCAGAGAGGGGUGUUUCUGCCCGGGUUUGGAAUUCUCGGGUGCCAA` — result for “RBNS enrichment (R)”: 5.59.

Repeated from above (sample 3):
`PSIKENLLNEFDR [R5E]`: “normalised enrichment score” -0.597.
For `PSIKRNLLNEFWR [D12W]`, “normalised enrichment score” read 3.02.
Under “normalised enrichment score”, `TSIKRNLLNEFDR [P1T]` is recorded as 2.81.
`PSIKLNLLNEFDR [R5L]` — result for “normalised enrichment score”: -0.747.
`PSIKRNLLYEFDR [N9Y]` — result for “normalised enrichment score”: 4.3.
Under “normalised enrichment score”, `PSIKRNWLNEFDR [L7W]` is recorded as 1.51.
`PSIKCNLLNEFDR [R5C]`: “normalised enrichment score” -0.332.
`PSIKRNLLNEADR [F11A]`: “normalised enrichment score” 2.08.
Under “normalised enrichment score”, `PSIKRNLLNEFKR [D12K]` is recorded as 1.77.
